Measurements from different studies.
Parts stem from different laboratories: compare values within a part only.

Series 1
Target: RING finger protein unkempt homolog, zinc fingers 1-6, GST-SBP tag (UNK, Homo sapiens, UniProt Q9C0B0, residues 30-357)
Technique: RNA Bind-n-Seq
Molecule type: RNA
Sample: in vitro
Concentration: not given
Setting: RNA with constant flanks, human and mouse sites, ends assumed
Baseline: input RNA pool
Reading: higher = stronger binding
Construct (chain): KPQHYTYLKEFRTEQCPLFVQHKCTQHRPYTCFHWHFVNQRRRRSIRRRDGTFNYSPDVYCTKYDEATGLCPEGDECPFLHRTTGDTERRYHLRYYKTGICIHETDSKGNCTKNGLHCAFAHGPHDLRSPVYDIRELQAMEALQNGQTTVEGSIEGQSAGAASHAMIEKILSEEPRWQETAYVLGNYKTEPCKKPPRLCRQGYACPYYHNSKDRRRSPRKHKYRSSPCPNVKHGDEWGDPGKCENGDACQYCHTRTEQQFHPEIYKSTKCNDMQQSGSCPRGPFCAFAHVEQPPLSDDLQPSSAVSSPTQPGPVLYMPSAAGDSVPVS
| Sequence | bound/input enrichment |
| --- | --- |
| GGGAGUUCUACAGUCCGACGAUCCAAAAAAGCUAUGAGGAAGAGCUCCUCCCCUUCCUUGAGUAACUGCAACUCCGAUCUUGCUAGCAAAAUAUUUGGAAUUCCACUUGAUGAGCUGCAGCAGGGAGGACAUCCAGACAAUGACAACAGAGGAUUGAGCAUCA | 0.47 ratio |
| GGGAGUUCUACAGUCCGACGAUCAUAGAUGCCCUCGCUUCCUCCCUGUUUCCCGAUUCCUUCUGCCCCCACCCCCAGAUCUCCUAGUAGGUCACCCAGACCCGUCUGCACCCCACUUGCGAAUCUGCAGCCACAAAUCCUCUGCAACAGAGGAUUGAGCAUCA | 0.44 ratio |
| GGGAGUUCUACAGUCCGACGAUCGCGGGUGCUGUGCGCUUCUAUUCCAAGGACAGUGAAGGAAGCUGGUUCCGUUCCCUCUUUGUCCACAAGGUGGAUCCUCGGAAGGACGCCCACUCCACUCUGCUGUCCAAGAAGGAGACUCAACAGAGGAUUGAGCAUCA | 0.0874 ratio |
| GGGAGUUCUACAGUCCGACGAUCUAUUUGUGUAAAGUAUGCAUGCAGUCUUGUACUGUGACCUAAGAACAAAACUGUAACUGCAUUAGAAACCAUGAAAAAAUUAGAUAUUGUUUUGUGACUUUUAGACAGUGGUAAAUAUAGCAACAGAGGAUUGAGCAUCA | 5.34 ratio |

Series 2
Target: RNA binding protein fox-1 homolog 2, RRM domain, GST-SBP tag (RBFOX2, Homo sapiens, UniProt O43251-10, residues 100-194)
Technique: RNA Bind-n-Seq
Molecule type: RNA
Sample: in vitro
Concentration: 365 nM
Setting: natural RNA segment, single round, ends assumed
Baseline: no-protein control
Reading: higher = stronger binding
| Sequence | RBNS enrichment (R) |
| --- | --- |
| GGGAGUUCUACAGUCCGACGAUCACCCUCUCUCUCUCAAGCUGCCACAUGUAACGCCCUUGCUGCUUCUGUGUGUGGGUGAUUGGAUGUGGGGGUGGGGCCCGUGGAGAGCCGGUGCCCCUCCCCAUCUCCCCUGGAAUUCUCGGGUGCCAA | 0.425 |
| GGGAGUUCUACAGUCCGACGAUCGCUUCAGGAACUUAAUGCCACUCAGUUCAACAUCACAGGUGAAAUCAUGUCUCAGUUCCCAUCUAGCAAGGUGGCUUCAGGAGAGCAGAAGGAGGACCAGUCUGAAGAUAUGGAAUUCUCGGGUGCCAA | 0.383 |
| GGGAGUUCUACAGUCCGACGAUCAGAAUUGAAAGCCUUCGUAUCUUGAACCUCCCAACAUUUUUCUUAUGGCUGUUGAAAAGUAUAGAGCUAAAUUGAUUUAAUUACACUUUCCUUUGUACUUUAAAAAAAAGUGGAAUUCUCGGGUGCCAA | 0.8 |
| GGGAGUUCUACAGUCCGACGAUCGCACAUGCCGUUGCAGCACAAGCUUAUGCUUCCCGUAGCCGUGGCUUUUCAUUCUGCACAGUCCCAGGUCCCAGCUCCCCUCUUAUGGUUUCUGUCAUAAUGUGCUUUAUUGGAAUUCUCGGGUGCCAA | 0.425 |

Series 3
Target: Prothrombin, mature alpha-thrombin (F2, Homo sapiens, UniProt P00734)
Technique: aptamer microarray, sandwich
Molecule type: DNA with 2'F-ANA
Sample: in vitro
Concentration: 200 nM
Setting: whole 15-mer aptamer, many near background
Together with: Cy3 exosite-II aptamer, 400 nM
Reading: higher = stronger binding
| Sequence | mean fluorescence intensity |
| --- | --- |
| GGTTGGTGTGGTTGG (2'F-ANA at 1 2 4 5 6 11 14 15) | 46.5 a.u. |
| GGTTGGTGTGGTTGG (2'F-ANA at 4 6 7 8 9 10 11 12) | 93.1 a.u. |
| GGTTGGTGTGGTTGG (2'F-ANA at 4 6 7 9 12 13) | 293 a.u. |
| GGTTGGTGTGGTTGG (2'F-ANA at 6 8 10 14) | 107 a.u. |

Single results of other studies
| Molecule | target | test | system | conditions | how to read | endpoint | result |
| --- | --- | --- | --- | --- | --- | --- | --- |
| PhoQ, residues 284 288 289 292 302 303 SSTMSV | PhoP, residues 12 14 15 18 19 LHTVM (Escherichia coli, UniProt P23836) | Sort-seq, refers to: YFP reporter | E. coli | PhoQ-PhoP variant library, together with: 10 µM Mg2+ | baseline: high Mg2+ state, higher = stronger signaling | fold induction | 9.47 |

A few entries again (series 3):
| Sequence | mean fluorescence intensity |
| --- | --- |
| GGTTGGTGTGGTTGG (2'F-ANA at 4 6 7 9 12 13) | 293 a.u. |
